Published values from different studies.
Numbered parts are unrelated; each lists some results of a single study.

Sample 1 — method: competition protein-binding microarray; form: double-stranded DNA, one strand shown; matrix: in vitro; tested at: 2 µM; with: Pho4 competitor, 0.05 µM; reading: higher = stronger binding
Target: Centromere-binding protein 1, full length, His-tagged (CBF1, Saccharomyces cerevisiae, UniProt P17106, residues 1-351)
Chain of UniProt P17106 (whole entry, looked up): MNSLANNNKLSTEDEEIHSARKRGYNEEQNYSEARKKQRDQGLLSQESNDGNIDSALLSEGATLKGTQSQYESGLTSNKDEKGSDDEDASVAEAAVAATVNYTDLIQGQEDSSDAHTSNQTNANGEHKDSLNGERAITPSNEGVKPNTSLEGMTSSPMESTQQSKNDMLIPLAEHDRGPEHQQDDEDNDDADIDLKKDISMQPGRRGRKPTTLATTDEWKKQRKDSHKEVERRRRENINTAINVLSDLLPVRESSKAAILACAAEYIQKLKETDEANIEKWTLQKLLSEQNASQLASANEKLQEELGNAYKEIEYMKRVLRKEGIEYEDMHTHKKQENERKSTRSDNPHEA
Setting: whole 60-bp probe, lowest competitor level
| Sequence | fluorescence intensity |
| --- | --- |
| AGGGCTCAGAACCTGCAGGTGAAGAAGCGCTTTAGAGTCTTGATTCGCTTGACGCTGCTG | 56.4 a.u. |
| CGTCCTAGCGATTGACACGTGGGTGCCATGAGGAAGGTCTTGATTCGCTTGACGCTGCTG | 871 a.u. |
| AAAGCGGTAATTTGCACAGTGGGTGCAGATATCTATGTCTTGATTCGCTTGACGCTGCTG | 70.1 a.u. |
| ACACAGCCGTACCTACACGTGCCAGTTATCTTGATAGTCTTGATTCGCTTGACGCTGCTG | 1120 a.u. |
| GACGGAACCGTTCCGCTCGTGGCCGATTCAATGTGTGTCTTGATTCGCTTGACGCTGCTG | 75.9 a.u. |
| TTTTACAGCTGCAATCAGGTGAATTCGTTTCTTCGAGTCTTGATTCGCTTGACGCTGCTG | 114 a.u. |
| TGTTGCCACATAATTGAGGCATGTTAGCAGAGCATTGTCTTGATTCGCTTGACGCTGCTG | 62.2 a.u. |
| CGTCCTAGTGATTGTCACCGAACTTCCATGAGGAAGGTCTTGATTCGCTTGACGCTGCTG | 83.8 a.u. |
| CTTTTGAGAATTGTCAACGTGGGTAGGTTCGTTTCGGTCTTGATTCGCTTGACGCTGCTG | 109 a.u. |
| CCACCACTCCAACAGAGCGTGTTGAAATTCAAAAATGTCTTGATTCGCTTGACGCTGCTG | 87.8 a.u. |
| CAACACAATTCGAGTCACGTGGAACGGCCTTCAAATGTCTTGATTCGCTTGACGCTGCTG | 6730 a.u. |
| GCGCTCTTGTTCATGTTCGTGATGGTGTCCAGCCATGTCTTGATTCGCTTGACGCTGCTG | 86.6 a.u. |
| ACAAAGGCACCAAGCGGCGTGGGACGCTTTCTTGTGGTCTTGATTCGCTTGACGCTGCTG | 57.8 a.u. |
| CAAGCGACTTACACAGACATGACAATTGCTCCAATTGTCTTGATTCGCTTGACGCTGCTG | 66.3 a.u. |
| CGTCCTAGTGATTGTCACGCGACTTCCATGAGGAAGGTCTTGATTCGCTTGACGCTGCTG | 634 a.u. |
| CAACTACGCTGGATCGACGTGGGACTGGCAGGGAAGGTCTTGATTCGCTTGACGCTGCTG | 69.3 a.u. |
| TAAAAATAACACCATCACGTATTTTAACGAATCAGAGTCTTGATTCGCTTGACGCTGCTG | 105 a.u. |
| GTCTTGTCTCATTGCATAGTGGGTGTCCCCACTTCAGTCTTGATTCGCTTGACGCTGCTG | 68.2 a.u. |
| CGGTAACGTCGCACTCACATGAGTTTTCCTGACTTCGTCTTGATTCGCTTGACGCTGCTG | 78.8 a.u. |
| AAATTACTAAGTTTTCACGTGTCGTACCCCGTATGAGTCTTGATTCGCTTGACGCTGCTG | 898 a.u. |
| AAAGCAGATGGGGATCGCGTGCTAACAAATTACTCGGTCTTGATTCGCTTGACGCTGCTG | 196 a.u. |
| CATACCCAACCTTGGAGCGTGGGTGAAGATATTTGTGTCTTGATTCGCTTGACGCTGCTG | 66.4 a.u. |
| CTTTCCCGATCTTTTCACGTGTGATTAGCACATTTGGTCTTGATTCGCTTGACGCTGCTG | 615 a.u. |

Sample 2 — method: RNA Bind-n-Seq; form: RNA; matrix: in vitro; tested at: not given; relative to: input RNA pool; reading: higher = stronger binding
Target: RING finger protein unkempt homolog, zinc fingers 1-6, GST-SBP tag (UNK, Homo sapiens, UniProt Q9C0B0, residues 30-357)
Setting: RNA with constant flanks, human and mouse sites, ends assumed
Construct (chain): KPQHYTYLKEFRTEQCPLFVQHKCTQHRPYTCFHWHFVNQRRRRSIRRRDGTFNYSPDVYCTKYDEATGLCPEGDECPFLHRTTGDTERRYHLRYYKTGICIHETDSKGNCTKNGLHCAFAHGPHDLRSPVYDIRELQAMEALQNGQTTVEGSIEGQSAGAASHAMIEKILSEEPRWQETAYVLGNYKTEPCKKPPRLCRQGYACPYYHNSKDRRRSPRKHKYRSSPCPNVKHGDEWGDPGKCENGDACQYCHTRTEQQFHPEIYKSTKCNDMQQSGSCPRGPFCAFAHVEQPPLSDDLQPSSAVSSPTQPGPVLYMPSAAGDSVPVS
| Sequence | bound/input enrichment |
| --- | --- |
| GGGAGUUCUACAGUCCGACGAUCGCUCUAGUUCUUAACAACCGACACUCCUACAAGAUUUAGAAAAAAGUUUACAACAUAAUCUAGUUUACAGAAAAAUCUUGUGCUAGAAUACUUUUUAAAAGGUAUUUUGAAUACCAUUAACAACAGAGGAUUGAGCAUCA | 9.04 ratio |
| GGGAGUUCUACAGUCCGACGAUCGUUUGUAAGUCAUCUGAUGAGCUAUCUGGAAUAACAGCUCUAACCUCUGCUUCCUACUCAUAUAAAGGGAGACCCAAUAGUUCUUAUCAGCAGAAGUUUCCAGACAGCCACCUAAAUGAACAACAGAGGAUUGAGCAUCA | 0.663 ratio |
| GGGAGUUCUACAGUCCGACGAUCUGAAGAGCUACUAUGAAGAUCAGGGUAUCCCAGCCAGCAUCACGUUUUUCAGUCCCUCCGGCCUUAAAUACAGCCUCGAGUAUAUUCAGGCGUUAUCUGGCAGCAGCUUUGACCAGAUUACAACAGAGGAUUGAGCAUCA | 0.266 ratio |
| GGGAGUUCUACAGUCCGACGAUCCUGCCCUUUCAGGACUGCGUCGUACAGACCCCGCAGGGGCAGGACUAUGCGGGCAAGUGCUAUGCGGGGAAGCAGAUCACCGGUGUGUCCAUUCUGCGCGCCGGUGAAACCAUGGAGCCCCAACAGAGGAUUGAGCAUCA | 0.0758 ratio |
| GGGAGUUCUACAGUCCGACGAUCUCUAGGAGUCACAGUAUCUUCCUGAUUAACAUUAAGCAAGAGAAUGUGGAGACUGAAAAAAAACUCAGCGGGAAGCUGUAUUUGGUUGAUUUGGCUGGGAGUGAAAAGGUCAGCAAAACCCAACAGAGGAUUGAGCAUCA | 0.285 ratio |
| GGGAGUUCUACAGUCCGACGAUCUGCUUUUGCUACCACUGGAAGUUCCUUCUGUUUCUUGUGGAGUACCUUUUGCUGUCUGGGACUUGUAGAUAAUGGUGUUUCCUAGGGCUCCCUCCAGGGCCCUCUGCCUCACUAACUGGACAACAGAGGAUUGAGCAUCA | 0.131 ratio |
| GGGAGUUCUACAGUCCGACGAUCGACUUAGCAAAUAAAAGAGCUGUUGACUUCCAGGAAGCACAGUCCUAUGCAGAUGACAACAGCUUAUUAUUUAUGGAGACAUCAGCUAAGACAUCAAUGAAUGUAAAUGAAAUAUUUAUGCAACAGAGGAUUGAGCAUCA | 0.211 ratio |
| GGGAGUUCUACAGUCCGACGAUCGGAGUCCUGCCCCUUGGAGCUCAUGGUGCGCUGCGGUUGCGCUUUGUUGAGAAAGUAUGGAAAUUUCAUUGAUAACCUGAGAAUCUUCACCAAGGGAGGAAGCGGUGGAAUGGGUUACCCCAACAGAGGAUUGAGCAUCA | 0.196 ratio |

Sample 3 — method: protein-binding microarray; form: double-stranded DNA, one strand shown; matrix: in vitro; tested at: 2540 nM top; setting: 60-bp whole probe; with: salmon DNA 0.4 mg/ml; relative to: random background probes; reading: higher = stronger binding; all sequences stand within: GCCTAGCAC … GTCTTGATTCGCTTGACGCTGCTG
Target: Interferon regulatory factor 3, full length, phosphomimetic (IRF3, Homo sapiens, UniProt Q14653, residues 1-427, S386D/S396D/S398D/S402D/T404D/S405D)
Residues (chain): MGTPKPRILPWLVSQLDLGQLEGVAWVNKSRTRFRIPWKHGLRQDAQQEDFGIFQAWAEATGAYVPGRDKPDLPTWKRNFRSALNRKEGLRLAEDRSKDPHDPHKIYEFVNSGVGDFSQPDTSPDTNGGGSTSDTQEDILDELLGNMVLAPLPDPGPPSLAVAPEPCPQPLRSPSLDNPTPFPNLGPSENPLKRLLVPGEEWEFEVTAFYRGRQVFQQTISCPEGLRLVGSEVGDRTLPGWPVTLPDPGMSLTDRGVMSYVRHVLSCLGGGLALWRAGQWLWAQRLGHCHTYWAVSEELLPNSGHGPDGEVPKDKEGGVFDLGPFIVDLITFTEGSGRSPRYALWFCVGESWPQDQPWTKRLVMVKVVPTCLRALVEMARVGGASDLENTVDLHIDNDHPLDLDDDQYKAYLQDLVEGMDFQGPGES
| Sequence | fitted relative affinity [z-score] |
| --- | --- |
| TTGGGTTTCGGTTTCGGTTAGTGCTAG | 10.6 |
| TCAGGCTTAGTTTGTCAAACTGTGCTA | -0.321 |
| TATGAAATGGAAGTTTAGGGGTGCTAG | -0.394 |
| AACACAAACCCGCTGGAGTTGTGCTAG | -0.0755 |
| GAGGAACTGAGTTTCGAGACGTGCTAG | 1.02 |
| TTAGGTTCCCGTTTCGGTTAGTGCTAG | 5.91 |
| TGATCTTCCTTCATGGCCTGGTGCTAG | 0.51 |
| GACGCTTTCGGGACTGGAGACGTGCTA | 1.9 |
| TTAGTACTGCTTATCCTTTAGTGCTAG | 0.213 |
| GACGTACTGGACTTTCGGGACGTGCTA | 0.205 |
| GACGGACTGGGGCTGGGGACGTGCTAG | -0.904 |
| TGAGATTTCGGGACTGGATTAGTGCTA | 1.06 |
| GACGATTTCAATATCGAGACGTGCTAG | 1.7 |
| GAGGATTTCAGTCTCGAGACGTGCTAG | 1.32 |
| TTGGGTTTCGACTATCGGTTAGTGCTA | 1.43 |
| TTAGGCTTCCTTTCCCTTTAGTGCTAG | 3.78 |
| GACGGACTGGACACTGGGAACGTGCTA | -0.68 |
| GACGACATCAGTATCGAGACGTGCTAG | 0.161 |

Sample 4 — method: RNA Bind-n-Seq; form: RNA; matrix: in vitro; tested at: 365 nM; relative to: no-protein control; reading: higher = stronger binding
Target: RNA binding protein fox-1 homolog 2, RRM domain, GST-SBP tag (RBFOX2, Homo sapiens, UniProt O43251-10, residues 100-194)
Setting: natural RNA segment, single round, ends assumed
Construct (chain): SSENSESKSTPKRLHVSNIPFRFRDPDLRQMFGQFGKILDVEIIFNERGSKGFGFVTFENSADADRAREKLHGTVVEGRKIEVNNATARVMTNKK
| Sequence | RBNS enrichment (R) |
| --- | --- |
| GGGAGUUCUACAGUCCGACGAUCAGAACCAAAGCAACCACAAAUGCAUAAAUGCAUAAUUUAUGGUCUUCAACCAAGGCCACAUAAUAACCCAGUUAACUUACUCUUUAACCAGGAAUAUUAAGUUCUAUAACUGGAAUUCUCGGGUGCCAA | 0.686 |
| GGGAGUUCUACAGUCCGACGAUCCUGAGAUUCCAGAUAGAGAGGCUUCGGUUCCUGCUACUUCCCUGUUUGUCUGGGGAGUAGAGGAAUGAGUAGAACUGAUUUAGUUGUCUGUGGUGGGUGGGGAUAAUUUUUGGAAUUCUCGGGUGCCAA | 1.27 |
| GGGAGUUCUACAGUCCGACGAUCGUUGGGCAAUUAGUUUGUAAUUUGUUUUAGGCAAUCACUAUAAAUUAUAAUUAUGGACACUGCAUCAGUAUACAUAACAUGAAGGAAUAAAAAGGAUACAGAAUUGUAUAUGGAAUUCUCGGGUGCCAA | 0.556 |
| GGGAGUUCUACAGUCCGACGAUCAGUAUACAUAUAUAUUUAUAUCACAAUUUACGAAACCAAAAAGUUGAGUUUCCAAUGGAACCCUUGUUUUUUAAUAAUCGACUUUUUAAAUGUGAUCAGGACUAUAAUAUUGGAAUUCUCGGGUGCCAA | 0.466 |
| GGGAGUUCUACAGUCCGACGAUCGAGCUACAAUCAUGGCUUUUCAUGUUACUUACCAAGUGGUGUUUCUGGUUAGGAAUCACAGCUGUAAAAUUGAUUUCAGUUCAUCACACUUCUUCAUGAUGUUGCCCCUAUGGAAUUCUCGGGUGCCAA | 0.384 |
| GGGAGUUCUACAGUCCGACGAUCUCUCUAACCCCACCCCCUCCAAGCUGGGUUCUUUGUGGAAGAAGGACAGGGAGCUAGAGCCAAGCCCUAGGCUUGAGAGACACCUGCAUCUAUAAUCCCCGCCAAGGAUGUGGAAUUCUCGGGUGCCAA | 0.405 |
| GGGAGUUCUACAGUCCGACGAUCCGCUAAGGGGACACCCCUUCCCCAGGUCUUUUAUUUGUUUAAGUUAUUUUUGCACAAAUGACUCUUUUAUAUUUAAUUCGACUUCAUUGCCUCCCUUCUUAAAGCUAGCAUGGAAUUCUCGGGUGCCAA | 2.33 |
| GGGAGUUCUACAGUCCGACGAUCUUAUUAUACACAGCUCUGUAAACUACCACUCAGCCCUGUGUUGGGGUCCUCAAAGAAGUAAGGCCACAGUAAUCAAGCAAGGGCCUUUGGUUUUUUCCAGAGUUAGAUCCUGGAAUUCUCGGGUGCCAA | 0.319 |
| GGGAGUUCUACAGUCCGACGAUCACCUACUAAGUAGCAAGAAUGCCUCAGCAAUCCCCAAGCCUUCCAGUGCCUCUGGGGGCUUCCUGAUGGAAAACUACACAAACUGAGUUUUUUAAAUGUUAACUCCACUUUGGAAUUCUCGGGUGCCAA | 0.508 |
